Measurements of several laboratories.
Lines come from different studies, so protocols differ. Values joined by “and” are separate records of one study, mostly repeats; a detail may differ. Numbers after ± are the reported error.
Chain of UniProt Q2TAA2 (whole entry, looked up): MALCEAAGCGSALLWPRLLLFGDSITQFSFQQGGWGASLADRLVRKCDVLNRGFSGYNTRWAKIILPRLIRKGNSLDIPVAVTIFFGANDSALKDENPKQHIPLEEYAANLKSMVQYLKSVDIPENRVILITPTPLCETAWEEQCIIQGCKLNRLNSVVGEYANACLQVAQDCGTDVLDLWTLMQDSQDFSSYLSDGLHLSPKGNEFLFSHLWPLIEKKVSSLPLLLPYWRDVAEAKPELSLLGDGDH
Chain of UniProt Q13561 (whole entry, looked up): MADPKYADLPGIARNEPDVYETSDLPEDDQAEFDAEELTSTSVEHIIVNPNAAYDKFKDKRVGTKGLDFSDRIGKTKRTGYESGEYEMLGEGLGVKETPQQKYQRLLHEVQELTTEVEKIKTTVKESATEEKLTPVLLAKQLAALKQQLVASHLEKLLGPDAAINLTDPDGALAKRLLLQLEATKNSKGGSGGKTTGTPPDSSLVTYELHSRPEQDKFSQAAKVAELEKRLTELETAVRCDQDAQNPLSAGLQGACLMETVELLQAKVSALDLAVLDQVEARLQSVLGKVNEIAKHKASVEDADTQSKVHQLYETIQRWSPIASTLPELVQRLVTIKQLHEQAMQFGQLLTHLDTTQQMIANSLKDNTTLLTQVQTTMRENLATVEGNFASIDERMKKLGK
Chain of UniProt P05177 (whole entry, looked up): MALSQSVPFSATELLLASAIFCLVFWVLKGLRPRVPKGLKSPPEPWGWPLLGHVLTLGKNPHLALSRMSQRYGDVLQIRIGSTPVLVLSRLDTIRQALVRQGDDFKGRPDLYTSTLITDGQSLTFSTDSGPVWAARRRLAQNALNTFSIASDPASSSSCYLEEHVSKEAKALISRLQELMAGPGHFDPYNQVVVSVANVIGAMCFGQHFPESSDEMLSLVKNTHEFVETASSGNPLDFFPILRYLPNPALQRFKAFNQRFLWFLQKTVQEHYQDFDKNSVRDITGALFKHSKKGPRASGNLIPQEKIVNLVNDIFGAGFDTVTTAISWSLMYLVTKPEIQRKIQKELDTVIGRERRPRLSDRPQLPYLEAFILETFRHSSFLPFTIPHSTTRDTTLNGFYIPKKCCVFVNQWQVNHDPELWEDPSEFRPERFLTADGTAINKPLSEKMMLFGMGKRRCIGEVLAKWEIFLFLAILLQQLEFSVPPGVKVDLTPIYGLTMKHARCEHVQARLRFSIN
Chain of UniProt P08684 (whole entry, looked up): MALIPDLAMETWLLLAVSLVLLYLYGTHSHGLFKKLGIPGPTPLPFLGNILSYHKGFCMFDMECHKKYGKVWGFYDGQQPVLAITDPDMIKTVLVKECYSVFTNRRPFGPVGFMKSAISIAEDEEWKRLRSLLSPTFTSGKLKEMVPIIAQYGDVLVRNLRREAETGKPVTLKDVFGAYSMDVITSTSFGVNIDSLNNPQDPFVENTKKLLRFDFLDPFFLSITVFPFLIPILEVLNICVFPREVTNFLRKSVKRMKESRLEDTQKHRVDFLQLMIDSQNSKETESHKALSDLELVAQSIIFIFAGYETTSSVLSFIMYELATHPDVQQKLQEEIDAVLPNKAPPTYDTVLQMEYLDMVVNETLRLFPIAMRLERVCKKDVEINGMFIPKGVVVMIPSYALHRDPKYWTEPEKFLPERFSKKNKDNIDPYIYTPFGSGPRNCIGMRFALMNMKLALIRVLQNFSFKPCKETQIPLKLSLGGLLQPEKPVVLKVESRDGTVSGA
Chain of UniProt Q96P68 (whole entry, looked up): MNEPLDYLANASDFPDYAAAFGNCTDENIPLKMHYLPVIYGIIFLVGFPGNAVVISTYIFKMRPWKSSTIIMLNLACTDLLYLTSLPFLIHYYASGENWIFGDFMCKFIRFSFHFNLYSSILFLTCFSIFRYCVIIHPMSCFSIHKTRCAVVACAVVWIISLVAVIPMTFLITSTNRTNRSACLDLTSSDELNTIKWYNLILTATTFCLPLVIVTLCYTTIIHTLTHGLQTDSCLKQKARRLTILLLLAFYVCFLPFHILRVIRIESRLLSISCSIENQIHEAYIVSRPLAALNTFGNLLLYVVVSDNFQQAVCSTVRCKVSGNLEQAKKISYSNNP
Chain of UniProt Q9Y6W6 (whole entry, looked up): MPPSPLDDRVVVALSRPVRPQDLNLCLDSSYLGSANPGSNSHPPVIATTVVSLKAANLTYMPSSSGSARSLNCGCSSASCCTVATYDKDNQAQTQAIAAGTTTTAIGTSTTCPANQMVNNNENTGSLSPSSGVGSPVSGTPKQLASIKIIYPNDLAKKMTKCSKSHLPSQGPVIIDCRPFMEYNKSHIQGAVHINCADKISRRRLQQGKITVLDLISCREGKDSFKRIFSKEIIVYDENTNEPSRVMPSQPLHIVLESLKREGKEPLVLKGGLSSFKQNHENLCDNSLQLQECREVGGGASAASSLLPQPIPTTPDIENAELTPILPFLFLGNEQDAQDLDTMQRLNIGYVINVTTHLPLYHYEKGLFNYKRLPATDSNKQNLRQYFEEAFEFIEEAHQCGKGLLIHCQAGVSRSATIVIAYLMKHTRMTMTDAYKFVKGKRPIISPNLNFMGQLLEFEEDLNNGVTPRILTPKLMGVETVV
Chain of UniProt Q96KB5 (whole entry, looked up): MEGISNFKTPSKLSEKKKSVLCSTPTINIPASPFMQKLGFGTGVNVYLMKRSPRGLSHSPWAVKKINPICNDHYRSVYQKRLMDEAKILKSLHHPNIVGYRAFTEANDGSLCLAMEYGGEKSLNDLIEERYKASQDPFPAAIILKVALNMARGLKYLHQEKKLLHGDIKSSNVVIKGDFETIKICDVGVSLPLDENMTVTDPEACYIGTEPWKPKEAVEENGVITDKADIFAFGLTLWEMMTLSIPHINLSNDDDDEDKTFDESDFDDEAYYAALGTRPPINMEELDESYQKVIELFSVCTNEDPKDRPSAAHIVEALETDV
Chain of UniProt Q9H1Y3 (whole entry, looked up): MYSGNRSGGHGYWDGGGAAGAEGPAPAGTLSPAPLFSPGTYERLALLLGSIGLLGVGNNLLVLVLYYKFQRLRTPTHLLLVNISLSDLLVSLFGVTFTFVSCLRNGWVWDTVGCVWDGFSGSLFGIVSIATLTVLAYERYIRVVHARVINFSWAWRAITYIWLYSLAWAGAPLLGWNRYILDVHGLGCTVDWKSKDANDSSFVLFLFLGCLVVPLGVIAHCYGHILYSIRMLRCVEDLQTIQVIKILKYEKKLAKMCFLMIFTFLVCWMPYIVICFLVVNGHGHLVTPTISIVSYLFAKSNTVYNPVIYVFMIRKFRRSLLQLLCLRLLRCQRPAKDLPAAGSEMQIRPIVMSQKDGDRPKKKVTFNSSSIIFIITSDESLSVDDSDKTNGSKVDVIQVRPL

Structure (SMILES) | target or system | test | system | conditions | how to read | measurement | result
COc1cc(Nc2ncc(F)c(Nc3ccc4c(n3)NC(=O)C(C)(C)O4)n2)cc(OC)c1OC | Dual specificity protein phosphatase 10 (Homo sapiens, UniProt Q9Y6W6) |  |  | MKP-5 |  | IC50 | > 10 µM
COc1ncnn2ccc(-c3cnc4nc(C)n(Cc5nnc([C@@H](C)F)o5)c4c3)c12 |  |  | human | oral, dose not given, grade 2 |  | patients with hypotension | 14.3%
CCN(CC)C(=O)[C@@H]1C=C2c3cccc4[nH]cc(c34)C[C@H]2N(C)C1 |  | item: lack of appetite | healthy volunteers | dose not given, 12 to 24 h | relative to: placebo, direction not given | List of Complaints score | 4
OCc1ncc2n1-c1ccc(Cl)cc1C(c1ccccc1F)=NC2 |  |  | human, plasma | oral, 7.5 mg of midazolam, day 26, geometric mean, no amenamevir |  | AUC(0-inf) | 41.6 ng·h/mL
CCCCCC(=O)N[C@@H](CCCNC(=N)N)C(=O)N[C@@H](CCCNC(=N)N)C(=O)N[C@@H](CCCNC(=N)N)C(=O)N[C@@H](CCCNC(=N)N)C(=O)N[C@H](C(=O)N[C@@H](CC(C)C)C(=O)N[C@H](C(=O)N[C@@H](CCCCN)C(=O)N[C@@H](CCCCN)C(=O)N[C@H](C(=O)N[C@@H](CC(C)C)C(=O)N[C@@H](CCCCN)C(=O)N[C@@H](CC(C)C)C(=O)N[C@@H](CCCCN)C(=O)N[C@@H](CO)C(=O)N[C@@H](CO)C(=O)N[C@@H](C)C(=O)N[C@@H](Cc1ccc(O)cc1)C(N)=O)C(C)C)[C@@H](C)CC)[C@@H](C)CC | human erythrocytes |  |  | 400 µM, 1 h | relative to: Triton X-100 | hemolysis | 3%
C[C@@H](O)[C@@H](CO)NC(=O)[C@@H](CCCNC(=N)N)NC(=O)[C@@H]1CCCN1C(=O)[C@@H]1CSSC[C@H](NC(=O)[C@H](Cc2ccccc2)NC(=O)CN2CCN(CC(=O)O)CCN(CC(=O)O)CCN(CC(=O)O)CC2)C(=O)N[C@@H](Cc2ccc(O)cc2)C(=O)N[C@@H](Cc2ccccc2)C(=O)N[C@@H](CCC(N)=O)C(=O)N[C@@H](CC(N)=O)C(=O)N1 [gallium-68 labelled] |  |  | Wistar rat, healthy, urinary bladder | intravenous, 8 MBq, 30 min |  | tissue uptake | 4.32 %ID/g
CC[C@H](C)[C@H](NC(=O)[C@H](C)NC(=O)[C@H](CCCNC(=N)N)NC(=O)[C@H](CCCNC(=N)N)NC(=O)[C@@H](N)CCCNC(=N)N)C(=O)N[C@@H](CO)C(=O)NCC(=O)N[C@@H](CO)C(=O)N[C@@H](CC(C)C)C(=O)N[C@H](C(=O)N[C@H](C(=O)N[C@@H](CC(C)C)C(=O)N[C@@H](Cc1ccccc1)C(=O)NCC(=O)N[C@@H](Cc1ccc(O)cc1)C(=O)N[C@@H](CCCNC(=N)N)C(=O)N[C@@H](CCCNC(=N)N)C(=O)N[C@@H](CCCNC(=N)N)C(N)=O)[C@@H](C)O)C(C)C | human erythrocytes |  |  | 400 µM, 1 h | relative to: Triton X-100 | hemolysis | 6%
C#Cc1ccc2c(c1)C(c1ccccn1)=NCc1c(-c3cnco3)ncn1-2.Cl |  |  | DMF | 24 h, 25 °C, thermodynamic equilibrium |  | solubility | 4610 µg/mL
CN1CC[C@@H](c2c(O)cc(O)c3c(=O)cc(-c4ccc(C(F)(F)F)cc4Cl)oc23)[C@@H]1CO |  | item: Neutropenia | B-cell malignancies | oral, 200 mg, intermittent dosing |  | patients with adverse event | 0%
COc1cc2c(Oc3ccc4[nH]c(C)cc4c3F)ccnc2cc1OCC1(N)CC1 |  |  | paediatric recurrent refractory sarcoma | 8 mg |  | grade 3 Dizzy | 0%
CC(C)CC(=O)OC[C@H]1O[C@@](C#N)(c2ccc3c(N)ncnn23)[C@H](O)[C@@H]1O | Cytochrome P450 1A2 (CYP1A2, Homo sapiens, UniProt P05177) | metabolic stability | recombinant enzyme | 1 µM, 30 min |  | remaining compound | 92.9 ± 2.49%
CC[C@H](C)[C@@H]1NC(=O)[C@@H]2CCCN2C(=O)[C@H](CC(C)C)NC(=O)[C@H](CC(C)C)NC(=O)CNC(=O)[C@@H](NC(=O)[C@@H](NC(=O)[C@H](CC(=O)O)NC(=O)CNC(=O)[C@@H](NC(=O)[C@H](C)NC(=O)CNC(=O)[C@H](CCCCN)NC(=O)[C@H](CC(C)C)NC(=O)[C@H](CC(C)C)NC(=O)[C@H](CCCCN)NC(=O)CNC(=O)[C@@H](NC(=O)[C@@H](N)CC(C)C)C(C)C)C(C)C)C(C)C)CSSC[C@@H](C(=O)O)NC1=O |  | RNA-seq, item: Slc1a5 | mouse, traumatic brain injury model, frontal cortex and hippocampus | dose not given | relative to: TBI alone | log2 fold change | -1.06
CC[C@@H](C)[C@@H](NC(=O)[C@@H](C)NC(=O)[C@@H](CCCNC(=N)N)NC(=O)[C@@H](CCCNC(=N)N)NC(=O)[C@@H](CCCNC(=N)N)NC(=O)[C@@H](CCCNC(=N)N)NC(=O)[C@@H](CCCNC(=N)N)NC(=O)[C@H](N)CCCNC(=N)N)C(=O)N[C@H](CO)C(=O)NCC(=O)N[C@H](CO)C(=O)N[C@H](CC(C)C)C(=O)N[C@@H](C(=O)N[C@@H](C(=O)N[C@H](CC(C)C)C(=O)N[C@H](Cc1ccccc1)C(=O)NCC(=O)N[C@H](Cc1ccc(O)cc1)C(N)=O)[C@H](C)O)C(C)C | human erythrocytes |  |  | 400 µM, 1 h | relative to: Triton X-100 | hemolysis | 33%
Oc1ccc2c3c1O[C@H]1[C@@H](O)CC[C@@]4(O)[C@@H](C2)N(CC2CCC2)CC[C@]314 | Opsin-3 (OPN3, Homo sapiens, UniProt Q9H1Y3) | β-arrestin recruitment, TANGO luminescence, item: OPN3 |  | concentration not given | relative to: basal luminescence | log2 fold change | 0.068
Cc1ncc2n1-c1ccc(Cl)cc1C(c1ccccc1F)=NC2 |  |  | wild-type mice, plasma | intravenous, 0.3 mg/kg, added: 14-day BC 500 mg/kg |  | AUC(0-90 min) | 0.102 ± 0.0187 µM·h
CC[C@H](C)[C@H](N)C(=O)N[C@@H](CO)C(=O)N[C@@H](Cc1ccccc1)C(=O)N[C@@H](CC(C)C)C(=O)NCC(=O)N[C@@H](CO)C(=O)N[C@@H](CCCCN)C(=O)N[C@H](C(=O)N[C@H](C(=O)N[C@H](C(=O)N[C@@H](CC(C)C)C(=O)N[C@@H](CC(C)C)C(=O)N[C@@H](CCCCN)C(=O)N[C@@H](CCCNC(=N)N)C(=O)N[C@@H](CCCNC(=N)N)C(=O)N[C@@H](CCCNC(=N)N)C(=O)N[C@@H](CCCNC(=N)N)C(=O)N[C@@H](CCCNC(=N)N)C(=O)N[C@@H](CCCNC(=N)N)C(=O)N[C@@H](CCCNC(=N)N)C(N)=O)C(C)C)C(C)C)C(C)C | human erythrocytes |  |  | 400 µM, 1 h | relative to: Triton X-100 | hemolysis | 14%
CN1CCN(c2cc(-c3ccncc3)c(-c3ccc4ccccc4c3)nn2)CC1 | OXGR1 (Homo sapiens, UniProt Q96P68) | antagonist, FLIPR |  | 10 µM |  | inhibition | 3.1%
O=C(c1ccc(Cl)cc1)N1CCN2C(=O)N(OC(=O)N3CCOc4ccccc43)C(=O)C2C1 (stereo not drawn) | Isoamyl acetate-hydrolyzing esterase 1 homolog (IAH1, Homo sapiens, UniProt Q2TAA2) | MS-based ABPP | SW-620 conditioned medium | 10 µM, 1 h, 37 °C | relative to: compound over DMSO, lower = more inhibition | peptide ratio | 0.87 and 0.79
C[C@H]1CN(c2n[nH]c3nc(N[C@H]4CC[C@H](NS(=O)(=O)CCC(F)(F)F)CC4)ncc23)CCO1 | Dynactin subunit 2 (DCTN2, Homo sapiens, UniProt Q13561) | Kinobeads competition, item: DCTN2 |  | 0.8 µM, unit not given | relative to: vehicle | remaining binding | 1.27
CO[C@H]1C[C@@H]2CC[C@@H](C)[C@@](O)(O2)C(=O)C(=O)N2CCCC[C@H]2C(=O)O[C@H]([C@H](C)C[C@@H]2CC[C@@H](OC(=O)NCCOCCOCCOCCOCCOCCOCCOCCOCCC(=O)N3CCc4cc(Cn5nc(-c6ccc7oc(N)nc7c6)c6c(N)ncnc65)ccc4C3)[C@H](OC)C2)C[C@@H](O)[C@H](C)/C=C(\C)[C@@H](O)[C@@H](OC)C(=O)[C@H](C)C[C@H](C)/C=C/C=C/C=C/1C |  | phase 1 dose escalation | advanced solid tumour patients | intravenous, 6 mg weekly, grade ≥3 |  | any SAE incidence | 41.7%
CC[C@H](C)[C@H](NC(=O)[C@H](Cc1ccccc1)NC(=O)[C@H](CCC(=O)O)NC(=O)[C@H](CCCNC(=N)N)NC(=O)[C@H](C)NC(=O)[C@H](C)NC(=O)[C@H](CCC(N)=O)NC(=O)[C@H](CCC(=O)O)NC(=O)[C@H](CCC(=O)O)NC(=O)[C@H](CC(C)C)NC(=O)[C@H](Cc1ccc(O)cc1)NC(=O)[C@H](CO)NC(=O)[C@H](CO)NC(=O)[C@@H](NC(=O)[C@H](CC(=O)O)NC(=O)[C@H](CO)NC(=O)[C@@H](NC(=O)[C@H](Cc1ccccc1)NC(=O)[C@@H](NC(=O)CNC(=O)[C@H](CCC(=O)O)NC(=O)[C@H](C)NC(=O)CCc1c[nH]cn1)[C@@H](C)O)[C@@H](C)O)C(C)C)C(=O)N[C@@H](C)C(=O)N[C@@H](Cc1c[nH]c2ccccc12)C(=O)N[C@@H](CC(C)C)C(=O)N[C@H](C(=O)N[C@@H](CCCNC(=N)N)C(=O)NCC(=O)N[C@@H](CCCNC(=N)N)C(=O)N[C@@H](CCCCNC(=O)COCCOCCNC(=O)COCCOCCNC(=O)CC[C@H](NC(=O)CCCCCCCCCCCCCCCCC(=O)O)C(=O)O)C(=O)NCC(=O)NCC(=O)N[C@@H](CO)C(=O)N[C@@H](CCCCNc1c(NCCCCCN(O)C(=O)CCC(=O)NCCCCCN(O)C(=O)CCC(=O)NCCCCCN(O)C(C)=O)c(=O)c1=O)C(=O)O)C(C)C [zirconium-89 labelled] |  | ex vivo gamma counting | rat, intestine content | subcutaneous, 3 nmol/kg, 24 h, added: [89Zr]-labelled peptide |  | tissue uptake | 0.11 %ID/g
O=[N+]([O-])c1ccc(N2CCN(CCC(O)c3ccc(F)cc3)CC2)c(C(F)(F)F)c1 (stereo not drawn) | Salmonella typhimurium | SOS/umu test | TA1535/pSK1002 | 0.016 mg/mL, 4 h, without S9, full range |  | survival | 92.7%
Cc1ncc2n1-c1ccc(Cl)cc1C(c1ccccc1F)=NC2 | Cytochrome P450 3A4 (CYP3A4, Homo sapiens, UniProt P08684) |  | human, plasma | oral, 2 mg, day 1, alone, median |  | Tmax | 30 min
O=C1c2c(O)c(=O)ccn2N([C@@H]2c3ccccc3SCc3c2ccc(F)c3F)[C@@H]2COCCN12 |  |  | BALB/c mice, plasma | oral, 5 mg/kg baloxavir marboxil, 1 h |  | plasma concentration | 44.6 ng/mL
COc1ccc(N2C(=O)N(c3c(C)cccc3Cl)Cc3cnc(Nc4ccc(C5CCN(C)CC5)cc4OC)nc32)nc1 | PBK (Homo sapiens, UniProt Q96KB5) | kinase activity |  | 0.5 µM |  | inhibition | 1%
Cc1cc(C(=O)NC(C)(C)COc2cccc3c2C(N)=NS(=O)(=O)N3)cc(C)n1 | Salmonella typhimurium | Ames test, initial | TA1535 | 5.00 µg/plate | relative to: solvent control | revertant ratio | 1
COc1cccc(-c2n[nH]c(SCc3ccccn3)n2)c1OC | Salmonella typhimurium | Ames test, plate incorporation | TA98 | 0.031 mg/plate, without S9 |  | revertant colonies per plate | 16
